# Measured values from different studies.
# ± gives the spread as reported.
# Cell line: Caco-2 monolayer
Structure (SMILES),assay,setting,scale,endpoint,result
CCCCCCC/C=C/C=C/C(=O)NCC(C)C,,"concentration not given, outcome: no effect, with: cichoric acid or Echinacea extract components",,permeability,no effect
O=S1(=O)OC(c2ccc(O)cc2)(c2ccc(O)cc2)c2ccccc21,,"5 µg/mL, 60 min, apical to basolateral",,Papp,~4.5 ×10⁻⁶ cm/s
Cc1cc(O)c2c(c1)C(=O)c1cccc(O)c1C2=O,,"in Rhizoma extract, extract 0.025 mg/mL",reference: Papp(B-A) over Papp(A-B),efflux ratio,2.07
C[C@H]1O[C@@H](O[C@H]2CC[C@@]3(C)[C@@H](CC[C@]4(C)[C@@H]3C=C[C@]35OC[C@@]6(CCC(C)(C)C[C@H]63)[C@@H](O)C[C@]54C)[C@]2(C)CO)[C@H](O)[C@@H](O[C@@H]2O[C@H](CO)[C@@H](O)[C@H](O)[C@H]2O)[C@H]1O,Caco-2 bidirectional transport,"10 µM, 3 h, 37 °C",,recovery apical to basolateral,70.3%
COC(=O)N[C@H](C(=O)N[C@@H](Cc1ccccc1)[C@@H](O)CN(Cc1ccc(-c2ccccn2)cc1)NC(=O)[C@@H](NC(=O)OC)C(C)(C)C)C(C)(C)C,,with: efflux inhibitor cocktail,,Papp A-B,72 ± 3.6 ×10⁻⁶ cm/s
CC[C@]1(O)C[C@@H]2CN(CCc3c([nH]c4ccccc34)[C@@](C(=O)OC)(c3cc4c(cc3OC)N(C)[C@H]3[C@@](O)(C(=O)OC)[C@H](OC(C)=O)[C@]5(CC)C=CCN6CC[C@]43[C@@H]65)C2)C1,transwell permeability,"10 µM, with: verapamil",reference: Papp B-A over Papp A-B,efflux ratio,3
C=C[C@@H]1C[C@]1(NC(=O)[C@@H]1C[C@@H](Oc2ncc(OC)c3ccc(Cl)cc23)CN1C(=O)[C@@H](NC(=O)OC(C)(C)C)C(C)(C)C)C(=O)NS(=O)(=O)C1CC1,,with: efflux inhibitor cocktail,,Papp A-B,48 ± 9.9 ×10⁻⁶ cm/s
O=c1cc(-c2ccc(O)cc2)oc2c([C@@H]3O[C@H](CO)[C@@H](O)[C@H](O)[C@H]3O)c(O)cc(O)c12,LC-MS/MS,"40 µM, 6 h",,Papp (apical to basolateral),38.5 ×10⁻⁶ cm/s
Cc1cc(O)c2c(c1)C(=O)c1cc(O)cc(O)c1C2=O,,"in Rhizoma extract, extract 0.025 mg/mL",reference: Papp(B-A) over Papp(A-B),efflux ratio,1.51

# A few entries again:
Structure (SMILES),assay,setting,scale,endpoint,result
CC[C@]1(O)C[C@@H]2CN(CCc3c([nH]c4ccccc34)[C@@](C(=O)OC)(c3cc4c(cc3OC)N(C)[C@H]3[C@@](O)(C(=O)OC)[C@H](OC(C)=O)[C@]5(CC)C=CCN6CC[C@]43[C@@H]65)C2)C1,transwell permeability,"10 µM, with: verapamil",reference: Papp B-A over Papp A-B,efflux ratio,3
